Experimental data gathered from unrelated publications.
Numbered parts are unrelated; each lists some results of a single study.

Sample 1 — technique: protein-binding microarray; molecule type: double-stranded DNA, one strand shown; matrix: in vitro; concentration: not given; direction: higher = stronger binding
Target: Myc proto-oncogene protein, bHLH-zipper, MAX partner unstated (MYC, Homo sapiens, UniProt P01106, residues 368-449)
UniProt P01106, sequence (368-449, looked up): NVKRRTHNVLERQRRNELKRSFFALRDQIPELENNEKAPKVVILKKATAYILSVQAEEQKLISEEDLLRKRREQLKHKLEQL
Notes: k-mer, scored over probes, only values ≥0.25
Strand	E-score
CGCGTGGC	0.475
ACATGGTG	0.374
CATGTGGC	0.48
AGCCACAC	0.308

Sample 2 — technique: aptamer microarray, sandwich; molecule type: DNA with 2'F-ANA; matrix: in vitro; concentration: 200 nM; together with: Cy3 exosite-II aptamer, 400 nM; direction: higher = stronger binding; strand: GGTTGGTGTGGTTGG
Target: Prothrombin, mature alpha-thrombin (F2, Homo sapiens, UniProt P00734)
Notes: whole 15-mer aptamer, many near background
Modification	mean fluorescence intensity [a.u.]
2'F-ANA at 1 2 3 4 5 6 8 9 14 15	48.5
2'F-ANA at 2 7 10 12 13 15	182
2'F-ANA at 2 3 4 5 6 8 10 12 14 15	49.4
2'F-ANA at 2 3 5 9 12 13 14 15	55.1
2'F-ANA at 3 4 9 12	975

Sample 3 — technique: universal PBM; molecule type: double-stranded DNA, one strand shown; matrix: in vitro; concentration: 600 nM; direction: higher = stronger binding
Target: Sal-like protein 4, full length isoform A (SALL4, Homo sapiens, UniProt Q9UJQ4, residues 1-1053)
UniProt Q9UJQ4, sequence (whole entry, looked up): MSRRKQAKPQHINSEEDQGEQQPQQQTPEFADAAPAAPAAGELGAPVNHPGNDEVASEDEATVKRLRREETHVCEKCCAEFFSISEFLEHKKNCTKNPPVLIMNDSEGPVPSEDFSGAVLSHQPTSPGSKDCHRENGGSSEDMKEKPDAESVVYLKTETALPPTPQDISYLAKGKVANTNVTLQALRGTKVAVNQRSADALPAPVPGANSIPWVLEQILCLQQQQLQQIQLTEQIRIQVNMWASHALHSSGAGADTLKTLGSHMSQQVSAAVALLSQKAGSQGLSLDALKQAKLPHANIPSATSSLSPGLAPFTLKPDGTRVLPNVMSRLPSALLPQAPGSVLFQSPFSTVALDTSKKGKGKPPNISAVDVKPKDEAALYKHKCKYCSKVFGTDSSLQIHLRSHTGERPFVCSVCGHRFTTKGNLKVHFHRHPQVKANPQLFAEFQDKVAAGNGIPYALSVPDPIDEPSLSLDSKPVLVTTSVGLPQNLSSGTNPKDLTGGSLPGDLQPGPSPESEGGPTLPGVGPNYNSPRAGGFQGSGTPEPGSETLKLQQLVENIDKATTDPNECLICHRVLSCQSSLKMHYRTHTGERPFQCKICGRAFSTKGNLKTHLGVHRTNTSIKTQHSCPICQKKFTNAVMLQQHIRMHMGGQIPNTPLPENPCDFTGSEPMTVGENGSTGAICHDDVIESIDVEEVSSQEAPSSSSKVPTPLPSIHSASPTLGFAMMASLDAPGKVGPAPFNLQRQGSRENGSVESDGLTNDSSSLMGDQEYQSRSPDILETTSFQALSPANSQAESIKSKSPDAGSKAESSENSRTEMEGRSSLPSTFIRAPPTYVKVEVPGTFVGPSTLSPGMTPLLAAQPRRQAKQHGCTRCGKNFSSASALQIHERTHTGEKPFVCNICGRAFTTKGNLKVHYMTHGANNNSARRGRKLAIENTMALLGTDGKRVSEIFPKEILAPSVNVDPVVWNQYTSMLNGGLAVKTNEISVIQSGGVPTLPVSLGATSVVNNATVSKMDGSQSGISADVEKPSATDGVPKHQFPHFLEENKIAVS
Notes: 8-mer, flanks averaged, mean of replicates
Strand	E-score
AACAATGG	0.0417
CCCGATCC	-0.372
AACGAATA	0.154
CATGTCAA	0.169
ACACCTCA	-0.0428

Other studies, line by line
Substance	target	test	system	conditions	scale	endpoint	result
PhoQ, residues 284 288 289 292 302 303 TLASMF	PhoP, residues 12 14 15 18 19 LHHVQ (Escherichia coli, UniProt P23836)	Sort-seq, refers to: YFP reporter	E. coli	PhoQ-PhoP variant library, together with: 10 µM Mg2+	baseline: high Mg2+ state, higher = stronger signaling	fold induction	9.43

Repeated from above (sample 3):
Strand	E-score
CATGTCAA	0.169
ACACCTCA	-0.0428
